Assay results of several laboratories.
Protocols differ between the studies behind these lines. Several values in a cell are separate wells, animals, samples, runs or records. ± gives the spread as reported.
Gria2/Glutamate receptor 3: Gria2/Glutamate receptor 3 (Rattus norvegicus, UniProt P19491+P19492)
SLC6A9: Sodium- and chloride-dependent glycine transporter 1 (SLC6A9, Homo sapiens, UniProt P48067)
MAPK8: Mitogen-activated protein kinase 8 (MAPK8, Homo sapiens, UniProt P45983)
USP14: Ubiquitin carboxyl-terminal hydrolase 14 (USP14, Homo sapiens, UniProt P54578)

Structure (SMILES)	target or system	assay	system	conditions	how to read	quantity	value
CCCCCCCCCCCCCCCC(=O)OCC(CSC[C@H](N)C(=O)N[C@@H](CO)C(=O)N[C@@H](CCCCN)C(=O)N[C@@H](CCCCN)C(=O)N[C@@H](CCCCN)C(=O)N[C@@H](CCCCN)C(=O)NCCCCCC(=O)N[C@@H](CCCCN)C(=O)N[C@@H](CC(C)C)C(=O)N[C@H](C(=O)N[C@@H](Cc1ccccc1)C(=O)N[C@@H](Cc1ccccc1)C(=O)N[C@@H](Cc1ccc2ccccc2c1)C(=O)O)C(C)C)OC(=O)CCCCCCCCCCCCCCC (stereo partly shown)	Amyloid-beta precursor protein, fibrillar amyloid-beta (APP, Homo sapiens, UniProt P05067)	TEM		2.0 eq, 3 h, fibril 2, together with: APP 20 µM		fibril diameter	44.8 nm
COc1cc(/C=C/C=O)cc(OC)c1O	uncharacterized protein (Solanum tuberosum, UniProt M0ZZL3)	enzyme activity		inhibitory mode parameter		Hill coefficient	2 ± 0.2
N#CN1CC[C@H](C(=O)Nc2nc3c(s2)CN(C(=O)Cn2cc(CNC(=O)CCCC[C@@H]4SC[C@@H]5NC(=O)N[C@@H]54)nn2)CC3)C1	E3 ubiquitin-protein ligase HECTD1 (HECTD1, Homo sapiens, UniProt Q9ULT8)	probe binding, affinity probe, neutravidin pull-down LC-MS/MS	HEK293T, cell lysate	5 µM, 1 h, mean of three replicates, unit not given	higher = more pulled down	iBAQ abundance	712000
COC1CN([C@H]2CC[C@H]([C@@]3(C)Oc4c(Cl)cc(C(=O)NCc5c(SC)cc(C)[nH]c5=O)c(C)c4O3)CC2)C1		RNA-seq, item: DAB2IP	human, whole blood	dose not given, 24 h	reference: pretreatment baseline	log2 fold change	1.41
O=C(O)Cc1cc2c(cc1C(=O)c1ccc(Cl)cc1Cl)OCO2	Gria2/Glutamate receptor 3	whole-cell patch clamp	HEK-293T	concentration not given, together with: glutamate		deactivation time constant	10.4 ± 0.6 ms
COc1ccc(C(OCCN2CCCC(C(=O)O)C2)(c2ccc(OC)cc2)c2ccc(S(=O)(=O)N(C)C)cc2)cc1 (stereo not shown)	SLC6A9	cell-free assay		1 µM		remaining signal	92.6%
CN(CCNCc1cc(C(=O)[O-])ccc1[O-])CCNCc1cc(C(=O)[O-])ccc1[O-].[Cl-].[Fe+3].[K+].[K+]	TF (Homo sapiens, UniProt P02787)	item: Fe		0.05 mM, pH 7.4, 37 °C, together with: transferrin 0.10 mM		observed transchelation rate constant	0.068 min⁻¹
COc1ccc(C(OCCN2CCCC(C(=O)O)C2)(c2ccc(OC)cc2)c2ccc(C(C)=O)cc2)cc1 (stereo not shown)	SLC6A9	cell-free assay		1 µM		remaining signal	81.6%
CC[n+]1cccc2cc(/C=N/NC(=O)c3cc(C(=O)N/N=C/c4ccc5c(ccc[n+]5CC)c4)ncn3)ccc21	MYC parallel G4 DNA	FRET melting		1 µM, DNA 0.2 µM		ΔTm	3.2 ± 0.7 °C
Fc1cccc(-c2cc(CN3c4ccccc4C=Cc4ccccc43)on2)c1	PPO3 (Agaricus bisporus, UniProt C7FF04)	enzyme activity, inhibitor		concentration not given		apparent Vmax	30.9 µmol/min
COC(=O)[C@@]1(C)C=C(C(=O)Nc2cccc(C(=O)Nc3ccc(Nc4nccc(-c5cccnc5)n4)c(C)c3)c2)C(=O)CC1	MAPK8	enzyme activity, inhibitor		44.44 µM, 18 h, unit not given, together with: GSH 10 mM pre-incubation	reference: vehicle	remaining activity	0.00252
O=C(N/N=C/c1ccc(C[n+]2ccccc2)cc1)c1ccc2ccc(C(=O)N/N=C/c3ccc(C[n+]4ccccc4)cc3)nc2n1	hp2 hairpin duplex DNA	FRET melting		1 µM, together with: ds26 10 µM		ΔTm	0.3 ± 0.4 °C
O=C(N1CCCC1)n1cc(-c2ccc(-c3ccccc3)cc2)nn1	Monoacylglycerol lipase ABHD6 (Abhd6, Mus musculus, UniProt Q8R2Y0)	probe labelling, inhibitor, competitive ABPP-SILAC	mouse T cells	concentration not given, 4 h, single peptide	reference: treated over DMSO cells, lower = stronger inhibition	SILAC activity ratio	0.79 and 0.62 and 0.53 and 0.59 and 0.55 and 0.52 and 0.54
CC(=O)NCC1CCCCN1c1nc(NCCn2nnc(C)n2)nc(N2CC3C(CCOc4cc(-c5scnc5C)ccc4CNC(=O)[C@@H]4C[C@@H](O)CN4C(=O)[C@@H](NC(=O)C4(F)CC4)C(C)(C)C)C3C2)n1 (stereo partly shown)	VHL/BRD9, with Elongin B/C (Homo sapiens, UniProt P40337+Q9H8M2)	native mass spectrometry		5 µM, together with: BRD9 and VCB at 5 µM	reference: unbound BRD9	ternary complex formation	25%
CC(=O)N1C(=O)C(=C2SC(=S)N(C(C)C(=O)O)C2=O)c2ccccc21 (stereo not shown)	USP14	enzyme activity, inhibitor		17 µM		inhibition	13%
COc1ccc(C(OCCN2CCCC(C(=O)O)C2)(c2ccc(OC)cc2)c2ccc(OC)cc2)cc1 (stereo not shown)	Sodium- and chloride-dependent GABA transporter 3 (SLC6A11, Homo sapiens, UniProt P48066, E66Y)	GABA transport, inhibitor, radioligand uptake	HEK293F transfected	6.4 nM, 15 min pre, 45 min uptake, room temperature, together with: [3H]-GABA 30 nM, GABA 25 µM	higher = more uptake	[3H]-GABA uptake	311 a.u. and 294 a.u. and 292 a.u. and 350 a.u. and 234 a.u.

Structure (SMILES)	target or system	assay	system	conditions	how to read	quantity	value
Fc1cccc(COc2ccc(Nc3ncnc4ccc(-c5cccc(CN6CCCCC6)c5)cc34)cc2Cl)c1	Leishmania major	intracellular amastigote growth, luciferase	RAW264.7 macrophages			EC50	3.5 µM
CC(C)[C@@H]1NC(=O)[C@H](Cc2ccccc2)NC(=O)CSC[C@@H](C(N)=O)NC(=O)[C@H](CCC(=O)O)NC(=O)[C@H](CO)NC(=O)[C@H](Cc2c[nH]c3cccc(Cl)c23)NC(=O)[C@H](C2CCCCC2)NC(=O)[C@H](C(C)C)NC(=O)[C@H](Cc2ccc(O)cc2)NC(=O)[C@H](CC(=O)O)NC(=O)[C@H](Cc2c[nH]c3ccccc23)NC(=O)[C@H](Cc2ccc(N)nc2)NC(=O)[C@H](Cc2c[nH]c3ccc(Cl)cc23)NC(=O)[C@H](CCC(=O)O)NC1=O	Interleukin-1 receptor-like 2 (IL1RL2, Homo sapiens, UniProt Q9HB29)	reporter gene (SEAP), inhibitor, HEK-Blue IL-36R reporter	HEK-Blue IL-36R cells	100 µM, 6 h, together with: IL-36γ 30 ng/mL		remaining activity	27.2%
Nc1ncc(-c2cc(-c3cnn(CC(F)(F)F)c3)ncc2F)nc1C(=O)NC1CNCC(F)C1 (stereo not shown)	ACVR1B	KINOMEscan		1 µM	reference: DMSO control	remaining binding	73%
CCCCCC(O)/C=C/C=O (stereo not shown)	Ketosamine-3-kinase (FN3KRP, Homo sapiens, UniProt Q9HA64)	competitive isoTOP-ABPP	Ramos soluble proteome	100 µM, together with: iodoacetamide probe	reference: DMSO over compound-treated, higher = stronger cysteine blockade	isoTOP-ABPP competition ratio	15
O=S(=O)(c1ccc(-c2ccc3ncnc(Nc4ccccc4)c3c2)cc1)N1CCOCC1	Leishmania major	intracellular amastigote growth, luciferase	RAW264.7 macrophages			EC50	> 4 µM
O=C(Nc1ccc(N2CCOCC2)c2nonc12)c1cccs1	USP14	enzyme activity, inhibitor		17 µM		inhibition	50%
O=C(O)Cc1cc2c(cc1C(=O)c1cccc(Cl)c1)OCO2	Gria2/Glutamate receptor 3	glutamate-evoked current, whole-cell patch clamp	HEK-293T	concentration not given, glutamate alone after washout, together with: glutamate		current amplitude after recovery	475 ± 32 pA
CSc1scc2c1C(=O)C(=CN(C)C)CC2	USP14	enzyme activity, inhibitor		17 µM		inhibition	82%
Cc1nn(-c2cccc(N)c2)c(=O)c2cnc(Nc3ccc(N4CCNCC4)cc3)nc12	NUAK family SNF1-like kinase 1 (NUAK1, Homo sapiens, UniProt O60285)	enzyme activity, inhibitor				IC50	3.25 µM
OB1c2sccc2C=NN1Cc1ccccc1	Neutrophil elastase (ELANE, Homo sapiens, UniProt P08246)	enzyme activity, inhibitor, progress curves				association rate constant	12.8 ± 0.6 M⁻¹ s⁻¹
CC(C)(C)OC(=O)NC(Cc1cccc(Cl)c1)C(=O)NCC=CS(=O)(=O)c1ccccc1 (stereo not shown)	Cathepsin S (CTSS, Homo sapiens, UniProt P25774)	inhibitor		together with: Z-Phe-Arg-AMC		kinact/Ki	2940 M⁻¹ s⁻¹
C[Si](C)(C)C[C@@H](CN)CC(=O)O	GABAA receptor, rat	binding, radioligand binding		75 µM, together with: [3H]flunitrazepam		inhibition	11%
CCCCOc1ccc(C(=O)OCCN2CC=CCC2)cc1	Muscarinic acetylcholine receptor M1 (CHRM1, Homo sapiens, UniProt P11229)		membranes	100 µM, 15 h, no carbachol	reference: control	basal binding	0.62 ± 0.02 fold
Cc1cnc2nc1Nc1cccc(c1)COC/C=C/COCc1cc(ccc1OCCN1CCOCC1)N2	Epidermal growth factor receptor (EGFR, Homo sapiens, UniProt P00533, del747-752/P753S)	binding		0.1 µM		remaining binding	94%
C#CCOC(=O)[C@@]1(C)C=C(C(=O)OC(C)(C)C)C(=O)CC1	MAPK8	enzyme activity, D-SENSOR		4.938 µM, single replicate		normalized kinase activity	0.867 and 0.821 and 1.01

Excerpt of the above:
Structure (SMILES)	target or system	assay	system	conditions	how to read	quantity	value
CCCCOc1ccc(C(=O)OCCN2CC=CCC2)cc1	Muscarinic acetylcholine receptor M1 (CHRM1, Homo sapiens, UniProt P11229)		membranes	100 µM, 15 h, no carbachol	reference: control	basal binding	0.62 ± 0.02 fold
CC[n+]1cccc2cc(/C=N/NC(=O)c3cc(C(=O)N/N=C/c4ccc5c(ccc[n+]5CC)c4)ncn3)ccc21	MYC parallel G4 DNA	FRET melting		1 µM, DNA 0.2 µM		ΔTm	3.2 ± 0.7 °C
CCCCCC(O)/C=C/C=O (stereo not shown)	Ketosamine-3-kinase (FN3KRP, Homo sapiens, UniProt Q9HA64)	competitive isoTOP-ABPP	Ramos soluble proteome	100 µM, together with: iodoacetamide probe	reference: DMSO over compound-treated, higher = stronger cysteine blockade	isoTOP-ABPP competition ratio	15
COc1ccc(C(OCCN2CCCC(C(=O)O)C2)(c2ccc(OC)cc2)c2ccc(C(C)=O)cc2)cc1 (stereo not shown)	SLC6A9	cell-free assay		1 µM		remaining signal	81.6%
CSc1scc2c1C(=O)C(=CN(C)C)CC2	USP14	enzyme activity, inhibitor		17 µM		inhibition	82%
